Earlier results that unrelated publications cite.
Compare with care: the assays were run in different laboratories.
Sequence of UniProt Q86UE8 (whole entry, looked up): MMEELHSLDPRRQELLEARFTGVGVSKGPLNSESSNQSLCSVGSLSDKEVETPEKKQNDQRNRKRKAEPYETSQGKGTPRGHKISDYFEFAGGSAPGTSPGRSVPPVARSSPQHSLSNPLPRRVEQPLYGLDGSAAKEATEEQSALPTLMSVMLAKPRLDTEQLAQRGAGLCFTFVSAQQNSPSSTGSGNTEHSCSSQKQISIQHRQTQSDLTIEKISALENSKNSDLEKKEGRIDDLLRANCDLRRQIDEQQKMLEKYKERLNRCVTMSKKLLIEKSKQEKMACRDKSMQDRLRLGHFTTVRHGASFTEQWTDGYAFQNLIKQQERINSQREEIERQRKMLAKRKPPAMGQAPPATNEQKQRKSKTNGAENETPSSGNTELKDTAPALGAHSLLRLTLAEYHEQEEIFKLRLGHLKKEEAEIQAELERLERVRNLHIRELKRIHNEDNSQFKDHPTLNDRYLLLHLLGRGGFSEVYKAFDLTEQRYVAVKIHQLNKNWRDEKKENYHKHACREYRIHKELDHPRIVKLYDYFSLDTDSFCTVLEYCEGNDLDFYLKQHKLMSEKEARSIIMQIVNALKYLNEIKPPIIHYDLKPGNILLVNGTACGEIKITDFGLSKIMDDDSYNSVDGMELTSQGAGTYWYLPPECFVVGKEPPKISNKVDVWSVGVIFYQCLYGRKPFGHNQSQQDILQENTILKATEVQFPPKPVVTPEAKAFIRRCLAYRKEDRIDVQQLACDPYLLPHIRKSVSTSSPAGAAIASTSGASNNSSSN

The fraction unbound of COc1cccc2c1C(=O)c1c(O)c3c(c(O)c1C2=O)C[C@@](O)(C(=O)CO)C[C@@H]3O[C@H]1C[C@H](N)[C@H](O)[C@H](C)O1 is reported as 0.3 (plasma; literature value).
For C[C@@H](Oc1ccc(S(C)(=O)=O)cc1C(=O)N1C[C@@H]2C[C@]2(c2cc(C(F)(F)F)on2)C1)C(F)(F)F, the fraction unbound was 0.196 (plasma).
COc1cnc(-n2cnc(C)n2)c2[nH]cc(C(=O)C(=O)N3CCN(C(=O)c4ccccc4)CC3)c12 gave a fraction unbound of 0.182 (plasma; hepatic impairment versus healthy).
Cc1nn(C)cc1S(=O)(=O)NC(=O)c1ccc(-n2ccc(OCC(C)(C)C(F)(F)F)n2)nc1N1C[C@@H](C)CC1(C)C has a fraction unbound of 0.399 (microsomal incubation; CYP2C8 Ki).
CN(CCOc1ccc(CC2SC(=O)NC2=O)cc1)c1ccccn1 (centres unmarked) gave a fraction unbound of 0.002 (plasma; literature value).
The remaining activity of Nc1cc(C(F)(F)F)c(-c2nc(N3CCOCC3)nc(N3CCOCC3)n2)cn1 is reported as 74% (Serine/threonine-protein kinase tousled-like 2 (TLK2, Homo sapiens, UniProt Q86UE8); enzyme activity; 10 µM; baseline: untreated).
NC(=O)N1c2ccccc2CC(O)c2ccccc21 (centres unmarked) has a fraction unbound of 0.6 (plasma).
For O=C(c1ccc(C#Cc2cccc(F)c2)nc1)N1CCC(O)CC1, the fraction unbound was 0.0956 (brain).
CC(C)(C)c1cc(O)ccc1O has a fraction unbound of 0.05 (plasma; literature value).
The fraction unbound of C[C@H]1Oc2cc(cnc2N)-c2c(nn(C)c2C#N)CN(C)C(=O)c2ccc(F)cc21 is reported as 0.34 (human plasma).
CC(C)(CO)c1cc2cc(NC(=O)C3(c4ccc5c(c4)OC(F)(F)O5)CC3)c(F)cc2n1C[C@@H](O)CO gave a fraction unbound of 0.009 (pregnant women, first trimester, 1-12 weeks gestation, maternal plasma).
O=C(O)Cc1ccccc1Nc1c(Cl)cccc1Cl has a fraction unbound of 0.01 (plasma; literature value).
CCN1CCC[C@H]1CNC(=O)c1c(O)c(Cl)cc(Cl)c1OC has a fraction unbound of 37% (plasma).
For Cc1c(C(=O)O)ccc2c3n(nc12)[C@@H]1[C@H](C3)N(CC2CC2)[C@@]2(C(=O)Nc3cc(Cl)ccc32)[C@H]1c1cccc(Cl)c1F, the fraction unbound was 0.022 (stem cell medium).

Repeated from above:
The fraction unbound of COc1cccc2c1C(=O)c1c(O)c3c(c(O)c1C2=O)C[C@@](O)(C(=O)CO)C[C@@H]3O[C@H]1C[C@H](N)[C@H](O)[C@H](C)O1 is reported as 0.3 (plasma; literature value).
O=C(O)Cc1ccccc1Nc1c(Cl)cccc1Cl has a fraction unbound of 0.01 (plasma; literature value).
